Measured values gathered from unrelated publications.
Lines come from different studies, so protocols differ. Numbers after ± are the reported error.

SMILES	assay	system	conditions	tissue uptake
N=C(N)NCCC[C@@H]1NC(=O)[C@H](CCCCNC(=O)CCOCCOCCOCCOCCNC(=O)CC[C@H](NC(=O)CCOCCOCCOCCOCCNC(=O)[C@H](CCCCNC(=O)c2ccc(NN)nc2)NC(=O)c2ccc(NN)nc2)C(=O)NCCOCCOCCOCCOCCC(=O)NCCCC[C@@H]2NC(=O)[C@@H](Cc3ccccc3)NC(=O)[C@H](CC(=O)O)NC(=O)CNC(=O)[C@H](CCCNC(=N)N)NC2=O)NC(=O)[C@@H](Cc2ccccc2)NC(=O)[C@H](CC(=O)O)NC(=O)CNC1=O [technetium-99m labelled]	–	athymic nude mouse, female, U-87 MG xenograft, tumor	intravenous, 0.1 MBq, 1 h	8.59 ± 1.52 %ID/g
CCCC[C@H](NC(=O)CNC(=O)CNC(=O)c1ccc(NN)nc1)C(=O)N[C@H]1CC(=O)NCCCC[C@@H](C(N)=O)NC(=O)[C@H](Cc2c[nH]c3ccccc23)NC(=O)[C@H](CCCNC(=N)N)NC(=O)[C@@H](Cc2ccccc2)NC(=O)[C@H](Cc2c[nH]cn2)NC1=O [technetium-99m labelled]	–	C57 mouse, B16/F1 melanoma, intestines	2 h, together with: NDP-MSH 6.07 nmol	0.73 ± 0.21 %ID
N=C(N)NCCC[C@@H]1NC(=O)[C@H](CCCCNC(=O)CCOCCOCCOCCOCCNC(=O)CC[C@H](NC(=O)CCOCCOCCOCCOCCNC(=O)CC[C@H](NC(=O)CN2CCN(CC(=O)O)CCN(CC(=O)O)CCN(CC(=O)O)CC2)C(=O)NCCOCCOCCOCCOCCC(=O)N[C@@H](CCC(=O)NCCOCCOCCOCCOCCC(=O)NCCCC[C@@H]2NC(=O)[C@@H](Cc3ccccc3)NC(=O)[C@H](CC(=O)O)NC(=O)CNC(=O)[C@H](CCCNC(=N)N)NC2=O)C(=O)NCCOCCOCCOCCOCCC(=O)NCCCC[C@@H]2NC(=O)[C@@H](Cc3ccccc3)NC(=O)[C@H](CC(=O)O)NC(=O)CNC(=O)[C@H](CCCNC(=N)N)NC2=O)C(=O)NCCOCCOCCOCCOCCC(=O)NCCCC[C@@H]2NC(=O)[C@@H](Cc3ccccc3)NC(=O)[C@H](CC(=O)O)NC(=O)CNC(=O)[C@H](CCCNC(=N)N)NC2=O)NC(=O)[C@@H](Cc2ccccc2)NC(=O)[C@H](CC(=O)O)NC(=O)CNC1=O [indium-111 labelled]	–	athymic nude mouse U-87 MG xenograft, heart	intravenous, 1 h, together with: RGD2 co-injected 14 mg/kg	0.4 %ID/g
N=C(N)NCCC[C@H](NC(=O)[C@H](CCCCN)NC(=O)[C@H](CCC(N)=O)NC(=O)CCOCCOCCOCCNC(=O)CN1CCN(CC(=O)O)CCN(CC(=O)O)CCN(CC(=O)O)CC1)C(=O)N[C@@H](CCCCN)C(=O)N[C@@H](CCCNC(=N)N)C(=O)N[C@@H](CCCCN)C(=O)N[C@@H](CCCCN)C(=O)N[C@@H](CO)C(=O)N[C@@H](CCCNC(=N)N)C(=O)N[C@@H](Cc1ccc(O)cc1)C(=O)N[C@@H](CCCCN)C(=O)N[C@@H](CO)C(=O)O [copper-64 labelled]	–	C57BL/6 Jms mouse, male, B16-F10 melanoma, tumour	intravenous, 60 min	4.45 ± 0.61 %ID/g
CCCC[C@H](NC(=O)CNC(=O)[C@H](CO)NC(=O)CNC(=O)c1ccc(NN)nc1)C(=O)N[C@H]1CC(=O)NCCCC[C@@H](C(N)=O)NC(=O)[C@H](Cc2c[nH]c3ccccc23)NC(=O)[C@H](CCCNC(=N)N)NC(=O)[C@@H](Cc2ccccc2)NC(=O)[C@H](Cc2c[nH]cn2)NC1=O [technetium-99m labelled]	–	C57 mouse, B16/F1 melanoma, urine	intravenous, 0.037 MBq, 2 h	95.25 ± 0.52 %ID
CCCC[C@H](NC(=O)[C@H](Cc1cccs1)NC(=O)[C@H](Cc1c[nH]cn1)NC(=O)CCNC(=O)[C@@H](NC(=O)[C@H](C)NC(=O)[C@H](Cc1c[nH]c2ccccc12)NC(=O)[C@H](CCC(N)=O)NC(=O)[C@H](Cc1cccs1)NC(=O)CN1CCC(NC(=O)CN(CCN(CCN(CC(=O)O)CC(=O)O)CC(=O)O)CC(=O)O)CC1)C(C)C)C(N)=O [indium-111 labelled]	–	Swiss nu/nu mouse, male, PC-3 tumour xenograft, tumour	intravenous, 10 pmol, 1 h	0.9 ± 0.2 %ID/g
CCCC[C@H](NC(=O)CCCCCCCNC(=O)c1ccc(NN)nc1)C(=O)N[C@H]1CC(=O)NCCCC[C@@H](C(N)=O)NC(=O)[C@H](Cc2c[nH]c3ccccc23)NC(=O)[C@H](CCCNC(=N)N)NC(=O)[C@@H](Cc2ccccc2)NC(=O)[C@H](Cc2c[nH]cn2)NC1=O [technetium-99m labelled]	–	C57 mouse, B16/F1 melanoma, blood	2 h, together with: NDP-MSH 10 µg (6.07 nmol) co-injected	0.82 ± 0.15 %ID/g
N=C(N)NCCC[C@@H]1NC(=O)[C@H](CCCCNC(=O)CCC(NC(=S)Nc2ccc(CC3CN(CC(=O)O)CCN(CC(=O)O)CCN(CC(=O)O)CCN3CC(=O)O)cc2)C(=O)NCCCC[C@@H]2NC(=O)[C@@H](Cc3ccc(O)cc3)NC(=O)[C@H](CC(=O)O)NC(=O)CNC(=O)[C@H](CCCNC(=N)N)NC2=O)NC(=O)[C@@H](Cc2ccc(O)cc2)NC(=O)[C@H](CC(=O)O)NC(=O)CNC1=O (some centres unmarked) [scandium-44 labelled]	PET imaging	female athymic nude mouse, U-87 MG xenograft tumour	intravenous, 5.5 to 7.4 MBq, 4 h	3 ± 1.25 %ID/g
CCCC[C@H](NC(=O)COCCOCCNC(=O)c1ccc(NN)nc1)C(=O)N[C@H]1CC(=O)NCCCC[C@@H](C(N)=O)NC(=O)[C@H](Cc2c[nH]c3ccccc23)NC(=O)[C@H](CCCNC(=N)N)NC(=O)[C@@H](Cc2ccccc2)NC(=O)[C@H](Cc2c[nH]cn2)NC1=O [technetium-99m labelled]	–	C57 mouse, female, B16/F1 melanoma, muscle	intravenous, 0.037 MBq, 2 h	0.03 ± 0.01 %ID/g
N=C(N)NCCC[C@@H]1NC(=O)[C@H](CC(=O)NC23CNCCNCC(N)(CNCCNC2)CNCCNC3)NC(=O)[C@@H](Cc2ccccc2)NC(=O)[C@H](CC(=O)O)NC(=O)CNC1=O [copper-64 labelled]	–	Nu/Nu mouse, male, tumour-bearing, bone	intravenous, 10 µCi, 24 h	0.29 ± 0.07 %ID/g
N=C(N)NCCC[C@@H]1NC(=O)[C@H](CCCCNC(=O)CNC(=O)CNC(=O)CNC(=O)c2ccc(NN=Cc3ccccc3S(=O)(=O)O)nc2)NC(=O)[C@@H](Cc2ccccc2)NC(=O)[C@H](CC(=O)O)NC(=O)CNC1=O [technetium-99m labelled]	–	athymic nu/nu mouse, female, U-87 MG glioma xenograft, kidney	intravenous, 30 min	10.9 ± 2.02 %ID/g
CSCC[C@H](NC(=O)[C@H](CC(C)C)NC(=O)[C@H](Cc1c[nH]cn1)NC(=O)CNC(=O)[C@@H](NC(=O)[C@H](C)NC(=O)[C@H](Cc1c[nH]c2ccccc12)NC(=O)[C@H](CCC(N)=O)NC(=O)CCCCCNC(=O)CNC(=O)CNC(=O)CNC(=O)CSC(C)=O)C(C)C)C(N)=O [technetium-99m labelled]	–	Swiss mouse, kidney	intravenous, 18.5 MBq, 5 min	1.81 ± 0.06 %ID/g
CSCC[C@H](NC(=O)[C@H](CC(C)C)NC(=O)[C@H](Cc1c[nH]cn1)NC(=O)CNC(=O)[C@@H](NC(=O)[C@H](C)NC(=O)[C@H](Cc1c[nH]c2ccccc12)NC(=O)[C@H](CCC(N)=O)NC(=O)[C@H](CC(N)=O)NC(=O)CNC(=O)[C@H](Cc1ccc(O)cc1)NC(=O)[C@H](CCCNC(=N)N)NC(=O)[C@H](CCC(N)=O)NC(=O)[C@@H]1CCCN1C(=O)CN1CCN(CC(=O)O)CCN(CC(=O)O)CCN(CC(=O)O)CC1)C(C)C)C(N)=O [indium-111 labelled]	–	Swiss nu/nu mouse, male, PC-3 tumour xenograft, tumour	intravenous, 10 pmol, 1 h	2.1 ± 0.9 %ID/g
N=C(N)NCCC[C@@H]1NC(=O)[C@H](CCCCNC(=O)CNC(=O)CNC(=O)CNC(=O)CC[C@H](NC(=O)CNC(=O)CNC(=O)CNC(=O)c2ccc(NN=Cc3ccccc3S(=O)(=O)O)nc2)C(=O)NCC(=O)NCC(=O)NCC(=O)NCCCC[C@@H]2NC(=O)[C@@H](Cc3ccccc3)NC(=O)[C@H](CC(=O)O)NC(=O)CNC(=O)[C@H](CCCNC(=N)N)NC2=O)NC(=O)[C@@H](Cc2ccccc2)NC(=O)[C@H](CC(=O)O)NC(=O)CNC1=O [technetium-99m labelled]	–	athymic nu/nu mouse, female, MDA-MB-435 xenograft, kidney	intravenous, 30 min	17.5 ± 2 %ID/g

Repeated from above:
SMILES	assay	system	conditions	tissue uptake
CSCC[C@H](NC(=O)[C@H](CC(C)C)NC(=O)[C@H](Cc1c[nH]cn1)NC(=O)CNC(=O)[C@@H](NC(=O)[C@H](C)NC(=O)[C@H](Cc1c[nH]c2ccccc12)NC(=O)[C@H](CCC(N)=O)NC(=O)CCCCCNC(=O)CNC(=O)CNC(=O)CNC(=O)CSC(C)=O)C(C)C)C(N)=O [technetium-99m labelled]	–	Swiss mouse, kidney	intravenous, 18.5 MBq, 5 min	1.81 ± 0.06 %ID/g
CSCC[C@H](NC(=O)[C@H](CC(C)C)NC(=O)[C@H](Cc1c[nH]cn1)NC(=O)CNC(=O)[C@@H](NC(=O)[C@H](C)NC(=O)[C@H](Cc1c[nH]c2ccccc12)NC(=O)[C@H](CCC(N)=O)NC(=O)[C@H](CC(N)=O)NC(=O)CNC(=O)[C@H](Cc1ccc(O)cc1)NC(=O)[C@H](CCCNC(=N)N)NC(=O)[C@H](CCC(N)=O)NC(=O)[C@@H]1CCCN1C(=O)CN1CCN(CC(=O)O)CCN(CC(=O)O)CCN(CC(=O)O)CC1)C(C)C)C(N)=O [indium-111 labelled]	–	Swiss nu/nu mouse, male, PC-3 tumour xenograft, tumour	intravenous, 10 pmol, 1 h	2.1 ± 0.9 %ID/g
